Measurements collected from several papers.
± marks the error that the study gave.

SMILES | target or system | assay | system | setting | scale | quantity | value
O=S(=O)([O-])CCCSCCN(CCSCCCS(=O)(=O)[O-])CCSCCCS(=O)(=O)[O-].[Na+].[Na+].[Na+] | Cu(I) | competition titration |  | 10 µM, pH 7.0, ionic strength 0.1, together with: Cu(I) 1 µM | higher = stronger binding | pCu | 16.9
C[C@@H](N)C1CCN(S(=O)(=O)c2cccc3cnccc23)CC1 | ROCK | MLC2 phosphorylation, inhibitor | HUVEC | 50 µM, 1 h, together with: LPA | reference: LPA alone | inhibition | 15%
CC[C@H]1[C@@H](O)[C@@H]2[C@H](CC[C@]3(C)[C@@H]([C@H](C)CCOS(=O)(=O)[O-])CC[C@@H]23)[C@@]2(C)CC[C@@H](O)C[C@@H]12.[Na+] |  |  | ob/ob NASH mice, plasma | oral, 10 mg/kg once daily, baseline before treatment, 8 wk study |  | plasma triglycerides | 0.8 ± 0.1 mmol/L
Cc1sc2ncn(CC(=O)N3CCCC3)c(=O)c2c1-c1cccc(Br)c1 | NMDA receptor, mouse | single-channel current, outside-out patch | cortical neurons | 50 µM, together with: Ca2+ 0.5 mM |  | γ2 conductance level area | 26%
C=C(c1cc(F)c(C(=O)O)c(F)c1)c1cc2c(cc1C)C(C)(C)CCC2(C)C |  | RNA sequencing, measured: Arl11 mRNA | rat, brain | dose not given, 24 h, single dose | reference: vehicle | log2 fold change | -0.22
CCOC(=O)C(NC(=O)CN1C(=O)N/C(=C\c2ccc3c(c2)OCO3)C1=O)C(C)C (centres unmarked) | Leishmania donovani | parasite growth, resazurin |  | promastigote |  | IC50 | > 100 µM
Cc1cccc(C)c1NC(=O)c1cc(-c2cccc(O)c2)on1 | mitochondrial permeability transition pore, mouse | mitochondrial swelling inhibition | isolated mouse liver mitochondria | together with: Ca2+ |  | EC50 | 0.0121 ± 0.0014 µM
CCOC(=O)CNC(=O)CN1C(=O)S/C(=C\c2ccc(OC)c(O)c2)C1=O | Leishmania major | parasite growth, resazurin |  | promastigote |  | IC50 | > 100 µM
O=Cc1c(O)ccc2ccccc12 | HUVEC | RNA sequencing, measured: TM4SF18 |  | 75 µM, 24 h | reference: DMSO | log2 fold change | -3.3
CCCCOCc1cn(-c2cc(Cl)ccc2Cl)nn1 |  | aPTT | human plasma | 1 µM |  | clotting time | 44.5 ± 0.7 s
CCOC(=O)C(C)NC(=O)CN1C(=O)S/C(=C\c2ccc(F)cc2)C1=O (centres unmarked) | Leishmania donovani | parasite growth |  | 24 h, intracellular, amastigote |  | IC50 | > 10 µM
